Experimental data from different studies.
Numbered parts are unrelated; each lists some results of a single study.

Study 1
Target: RNA binding protein fox-1 homolog 2, RRM domain, GST-SBP tag (RBFOX2, Homo sapiens, UniProt O43251-10, residues 100-194)
Technique: RNA Bind-n-Seq
Form: RNA
Matrix: in vitro
Tested at: 365 nM
Setting: natural RNA segment, single round, ends assumed
Relative to: no-protein control
Reading: higher = stronger binding
Constant ends, left off below: GGGAGUUCUACAGUCCGACGAUC … UGGAAUUCUCGGGUGCCAA
Construct (chain): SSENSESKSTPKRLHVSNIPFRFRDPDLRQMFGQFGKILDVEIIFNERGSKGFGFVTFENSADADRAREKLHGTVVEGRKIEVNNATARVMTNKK
Strand	RBNS enrichment (R)
AAUGCAUGUUUUGAGAUGUUUGGAGAUUCAGCAAUUCUGUCUUCAUUGCUCCAGGAUCUGGUAUACUGUUCUCAUAAAACUGAGAGGAGAAAAAAAGUGAAAGAAAGCAG	15.1
UAACCUUUCCAGUAUUCUGUUUCACGCUUAGAUGGAAAUGUAUCUUAUGAAUAGAGACAUAUUAAAAUAAUGUUUACAUCUUAGAAAAAACAUAGAUAGUGCUAGUAAUA	0.678
AUAUUACAGAGAAUUAUUUUCUGAGAUAAUCUUAAACUAGAAUGUUCAAAACUAAUUGAUAAUUGAAGUAUCAAGAUACGUAGAACACCUCAGAGAUUUUUCUUCAGGAA	0.499
GGCUAAACUGUGGGUGGCAGUGGGCAUCCCCAUCACCCUUAGCAAGGUGUGGUUCUCAGUGCCUGUCAUUGAUGUGUGUUCCCGUGCCCAGGCUGUCUCAGUGUCAUCAU	0.235
UCCUGGGGCUUCCUGGUGGCUGUGACCAGUUGAGGGGCUGUUCCUGGGUGGGGUGGCAAUGGGAGGACAGGUCAGAGCGCCCUCAUUUGUGGGGCUGCCCCUCCGGGUUU	0.751
ACUUUUUAUUCUUUAUCAUAGCUAAGUAAAUACCAAAAAAAAAAAAAAGCUUUGUAGGACACUUGUACUUAGUUUGGGAAAAAAAAAUAAAUUGAAAUUGUUAUGCUUUU	0.629
UAAAAGGAAAAAUAAGAAAAAAAAUGUAAGAAAUCACAUGGCUAUUUAGUUUCAUGCACAGUUGCAAUAUUUUCUUCAAAAAUAAAACUCUGUACAAACUUUGGGCCCGA	0.504
UAAUGAAUCCUCUCAGGACAUUGUGUAGCCUAUGGUAAGUACAAAGGGAGAGGAAGACAUUUUGAAUUUUAAGAGCUUUAUUAUCAGUUUAACCCUCCCUAGUUGAAUGU	0.435

Study 2
Target: Fragile X messenger ribonucleoprotein 1, C-terminal low-complexity region (Fmr1, Mus musculus, UniProt P35922)
Technique: RNA Bind-n-Seq
Form: RNA
Matrix: in vitro
Tested at: 200 nM
Setting: whole 134-nt RNA, ends assumed
Together with: 150 mM KCl
Relative to: input library
Reading: higher = stronger binding
Constant ends, left off below: GGGAGUUCUACAGUCCGACGAUC … UGGAAUUCUCGGGUGUCAAGG
Strand	log2 enrichment
UCCAGUCUAGCUUUGGAGAAGCGCCAACCUGCUCACUGCCGCCGACCAGACUGCAUGUUUGGUUGUACUUGUUUGAAAAGAAAAGUUGUA	-0.991
CCUCAAGUCCUGUGCUACACAUCGUAUGUACCGAAUCGGUUUGGAAAGGUGGAAAGUAUUAUGUUACGCCGUUCGGAUCUGCACUUCCAG	0.161
CACAGACAACACGCACCCACAAAAACACAGAGGGAAGGGGUUGGGAUGGGGACAGGGUGCACAGCAGGGCGGGGUAGGACCCCAGCCCCU	1.28
UCCUGUGCUACACAUCGUAUGUACCGAAUCGGCCCCCCCGGCCCCCCCGGCCCCCCCGGGAAAGUAUUAUGUUACGCCGUUCGGAUCUGC	0.312
UCCUGUGCUACACAUCGUAUGUACCGAAUCGGGAAAGGGUUUUUUUGGGUUUUUUUGGGAAAGUAUUAUGUUACGCCGUUCGGAUCUGCA	-0.0443
CAAGUCCUGUGCUACACAUCGUAUGUACCGAAUCGGUUUUGGUUUUGGGGUUUUGGAAAGUAUUAUGUUACGCCGUUCGGAUCUGCACUU	-0.763
CACUGACAACACGCACCCACACAGACACAGAGGGAAGGGGUUGGGAUGGGGACAGGGUGCACAGCAGGGCGGGGUAGGACCCCAGCCCCU	1.33
AGUCCUGUGCUACACAUCGUAUGUACCGAAUCGGAAAGGUUUUUUUGGUUUUUUUGGAAAGUAUUAUGUUACGCCGUUCGGAUCUGCACU	-1.33
ACCAUGCAGGUGGGCAUCUUUGGGAAGUGGGGCAAGGGUGGGAUAGGGAGGGGGGUAACACUUUGGGAACAGGUGGUCCCAGGUCGUUUC	0.7

Study 3
Target: Histone acetyltransferase KAT6A, winged helix 1, GST fusion (KAT6A, Homo sapiens, UniProt Q92794, residues 1-85)
Technique: protein binding microarray
Form: double-stranded DNA, one strand shown
Matrix: in vitro
Tested at: not given
Setting: 8-mer, flanks averaged, mean of 2 arrays, mostly near background
Relative to: not given
Reading: higher = stronger binding
Construct (chain): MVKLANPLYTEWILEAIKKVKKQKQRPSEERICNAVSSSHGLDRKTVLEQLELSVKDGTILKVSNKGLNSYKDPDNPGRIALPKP
Strand	E-score
TACGAGGA	-0.00863
ACCAAGGC	0.0873
TAACTCAA	-0.127
AGCCACTA	-0.0518
ATTGCACG	-0.00871
ACCATCGG	0.0527
AGTCTTTG	-0.304
ACCAAGTG	-0.168
ACATATGT	-0.0383
GATGGTGA	-0.229
ATCGTGCC	0.0571
CCCGAACC	0.0867
CATTAGTA	-0.147
CCGCATCC	0.26
GCGAGAAC	0.117
ATTGCGAG	0.0362
GAACAGCA	-0.103
CCGAGTAC	0.251
AGTGACAT	-0.137
CAACTGAA	-0.19
GTTTAAAC	0.141
CGTCGGAA	0.328

Study 4
Target: Myc proto-oncogene protein, bHLH-zipper, MAX partner unstated (MYC, Homo sapiens, UniProt P01106, residues 368-449)
Sequence of UniProt P01106 (368-449, looked up): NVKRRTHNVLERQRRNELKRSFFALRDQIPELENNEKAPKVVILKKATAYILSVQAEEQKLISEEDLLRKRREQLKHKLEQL
Technique: protein-binding microarray
Form: double-stranded DNA, one strand shown
Matrix: in vitro
Tested at: not given
Setting: k-mer, scored over probes, only values ≥0.25
Reading: higher = stronger binding
Strand	E-score
CCGTGGCA	0.285
CCTCGAGG	0.407
CTGCATGC	0.374
ACATGGGT	0.309
AGAGCATG	0.383
CACGAGCC	0.324
CAATGTGC	0.337
CACGCTAG	0.335
GCATGGCA	0.394
TGCGTCCA	0.286
ACACCGCG	0.28
CATGATGC	0.308
CATCATGG	0.292
AAGGCGTG	0.288
GCGTTTCC	0.275
ACGCACGA	0.408
GTGTAGAA	0.275
CACGTGGA	0.496
AGACCATG	0.376
CAGCACGC	0.394
AACATGCG	0.43
CGTGCTGC	0.362
ACATGCCC	0.331
ATTGCACG	0.329
AGGTGCGG	0.257

For quick reference, copied from above (study 4):
Strand	E-score
CATGATGC	0.308
CATCATGG	0.292
AAGGCGTG	0.288
GCGTTTCC	0.275
ACGCACGA	0.408
GTGTAGAA	0.275
CACGTGGA	0.496
AGACCATG	0.376
